Measured values from different studies.
A part holds a random share of what one study measured.

Series 1
Target: Sal-like protein 4, full length isoform B (SALL4, Homo sapiens, UniProt Q9UJQ4-2, residues 1-616)
Method: universal PBM
Molecule type: double-stranded DNA, one strand shown
Matrix: in vitro
Concentration: not given
Setting: 8-mer, flanks averaged, mean of replicates
Direction: higher = stronger binding
Endpoint: E-score
Target sequence (chain): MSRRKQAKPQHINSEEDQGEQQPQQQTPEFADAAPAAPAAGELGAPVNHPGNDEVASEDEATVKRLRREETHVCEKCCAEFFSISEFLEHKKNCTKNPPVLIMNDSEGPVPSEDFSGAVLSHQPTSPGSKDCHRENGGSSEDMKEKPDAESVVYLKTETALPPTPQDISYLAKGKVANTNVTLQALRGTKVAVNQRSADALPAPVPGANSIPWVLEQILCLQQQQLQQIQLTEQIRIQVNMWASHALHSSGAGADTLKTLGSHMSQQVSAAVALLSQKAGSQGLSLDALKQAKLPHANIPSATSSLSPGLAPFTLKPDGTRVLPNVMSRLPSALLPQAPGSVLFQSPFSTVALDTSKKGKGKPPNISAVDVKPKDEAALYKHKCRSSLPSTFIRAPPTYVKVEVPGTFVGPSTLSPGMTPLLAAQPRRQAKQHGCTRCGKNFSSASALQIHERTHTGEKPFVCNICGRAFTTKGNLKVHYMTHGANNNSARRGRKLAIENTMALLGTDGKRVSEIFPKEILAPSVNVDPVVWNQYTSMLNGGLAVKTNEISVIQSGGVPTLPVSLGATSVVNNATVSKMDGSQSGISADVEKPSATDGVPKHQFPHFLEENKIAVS
Strand = AATCCTGG; result = -0.15
Strand = CGCGACTA; result = -0.121
Strand = TGTAAACA; result = 0.214
Strand = TCTAGTAA; result = 0.286

Series 2
Target: TAR DNA-binding protein 43, full length, His tag (TARDBP, Homo sapiens, UniProt Q13148, residues 1-414)
Method: RNA Bind-n-Seq
Molecule type: RNA
Matrix: in vitro
Concentration: 20 nM
Setting: 6-mer, flanks averaged, single round
With: 150 mM KCl
Reference: input library
Direction: higher = stronger binding
Endpoint: 6-mer enrichment (R)
Strand = GCCUCU; result = 0.637
Strand = GCGACG; result = 1.71
Strand = AAGGUA; result = 0.785
Strand = GCCUUG; result = 0.975
Strand = ACCGGU; result = 0.801
Strand = GGCGGA; result = 3.53

Series 3
Target: Interferon regulatory factor 7, full length, phosphomimetic (IRF7, Homo sapiens, UniProt Q92985, residues 1-503, S471D/S472D/S475D/S476D/S477D/S483D/S484D/S487D)
Chain of UniProt Q92985 (whole entry, unmodified, looked up): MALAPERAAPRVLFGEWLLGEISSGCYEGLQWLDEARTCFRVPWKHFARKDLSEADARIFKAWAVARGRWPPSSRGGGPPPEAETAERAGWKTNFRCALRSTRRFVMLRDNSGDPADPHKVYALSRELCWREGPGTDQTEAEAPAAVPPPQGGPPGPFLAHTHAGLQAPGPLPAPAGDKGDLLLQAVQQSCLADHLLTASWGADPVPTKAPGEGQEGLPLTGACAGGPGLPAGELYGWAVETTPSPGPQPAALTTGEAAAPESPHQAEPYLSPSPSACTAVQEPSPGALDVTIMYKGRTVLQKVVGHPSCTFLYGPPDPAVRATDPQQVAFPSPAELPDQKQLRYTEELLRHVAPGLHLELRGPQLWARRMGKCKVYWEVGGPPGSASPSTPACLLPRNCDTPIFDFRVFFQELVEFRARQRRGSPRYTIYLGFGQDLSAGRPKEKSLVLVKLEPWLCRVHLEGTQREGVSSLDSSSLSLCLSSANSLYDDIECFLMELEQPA
Method: protein-binding microarray
Molecule type: double-stranded DNA, one strand shown
Matrix: in vitro
Concentration: 2200 nM top
Setting: 60-bp whole probe
With: salmon DNA 0.4 mg/ml
Reference: random background probes
Direction: higher = stronger binding
Endpoint: fitted relative affinity
Shared flanks, not repeated: GCCTAGCAC … GTCTTGATTCGCTTGACGCTGCTG
Strand = GACGGTATCCTTCTCCTGAAGTGCTAG; result = 0.966 z-score
Strand = TTAGGTTTCGGGGCTGGGTTAGTGCTA; result = 2.17 z-score
Strand = GACGGTATCGACGCTGGGGACGTGCTA; result = -0.286 z-score
Strand = TCATTTTAAGTTCTCTGACTGTGCTAG; result = 1.66 z-score
Strand = TCACATTTTTTTTGCAAACTGTGCTAG; result = 1.33 z-score
Strand = GACAGTCTCCTTATCCTGACGTGCTAG; result = 1.47 z-score

Mixed results
Substance = PhoQ, residues 284 288 289 292 302 303 ASASEQ; target = PhoP, residues 12 14 15 18 19 NQAHL (Escherichia coli, UniProt P23836); assay = Sort-seq, refers to: YFP reporter; system = E. coli; setting = PhoQ-PhoP variant library, with: 10 µM Mg2+; how to read = reference: high Mg2+ state, higher = stronger signaling; endpoint = fold induction; result = 1.68

A few entries again (series 2):
Strand = GCCUUG; result = 0.975
Strand = ACCGGU; result = 0.801
